Published values of several laboratories.
Values joined by “and” are separate records of one study, mostly repeats; a detail may differ. Numbers after ± are the reported error.
T1: ssDNA, aptamer; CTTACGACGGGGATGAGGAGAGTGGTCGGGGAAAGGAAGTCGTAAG
Chain of UniProt Q16774 (whole entry, looked up): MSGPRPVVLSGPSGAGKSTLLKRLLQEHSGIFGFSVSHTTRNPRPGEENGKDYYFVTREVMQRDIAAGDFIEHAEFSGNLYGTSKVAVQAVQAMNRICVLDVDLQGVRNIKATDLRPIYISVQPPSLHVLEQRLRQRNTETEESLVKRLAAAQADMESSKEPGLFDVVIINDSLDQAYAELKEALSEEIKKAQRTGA
Chain of UniProt P22736 (whole entry, looked up): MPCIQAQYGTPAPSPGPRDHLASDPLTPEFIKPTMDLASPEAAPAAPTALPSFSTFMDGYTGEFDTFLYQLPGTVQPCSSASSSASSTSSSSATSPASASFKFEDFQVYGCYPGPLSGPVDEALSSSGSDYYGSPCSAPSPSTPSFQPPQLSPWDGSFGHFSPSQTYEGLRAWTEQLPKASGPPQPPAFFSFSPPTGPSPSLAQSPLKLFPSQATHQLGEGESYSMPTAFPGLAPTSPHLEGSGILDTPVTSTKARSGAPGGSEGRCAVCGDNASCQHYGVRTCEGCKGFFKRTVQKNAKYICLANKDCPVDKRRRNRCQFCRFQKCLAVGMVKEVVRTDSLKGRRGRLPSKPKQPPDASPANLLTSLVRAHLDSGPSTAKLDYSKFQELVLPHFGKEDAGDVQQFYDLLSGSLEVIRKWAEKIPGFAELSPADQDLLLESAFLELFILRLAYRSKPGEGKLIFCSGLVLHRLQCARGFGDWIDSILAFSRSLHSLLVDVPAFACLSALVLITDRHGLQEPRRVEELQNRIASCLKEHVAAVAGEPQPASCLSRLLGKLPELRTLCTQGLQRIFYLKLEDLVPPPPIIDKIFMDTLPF
Chain of UniProt Q96NY8 (whole entry, looked up): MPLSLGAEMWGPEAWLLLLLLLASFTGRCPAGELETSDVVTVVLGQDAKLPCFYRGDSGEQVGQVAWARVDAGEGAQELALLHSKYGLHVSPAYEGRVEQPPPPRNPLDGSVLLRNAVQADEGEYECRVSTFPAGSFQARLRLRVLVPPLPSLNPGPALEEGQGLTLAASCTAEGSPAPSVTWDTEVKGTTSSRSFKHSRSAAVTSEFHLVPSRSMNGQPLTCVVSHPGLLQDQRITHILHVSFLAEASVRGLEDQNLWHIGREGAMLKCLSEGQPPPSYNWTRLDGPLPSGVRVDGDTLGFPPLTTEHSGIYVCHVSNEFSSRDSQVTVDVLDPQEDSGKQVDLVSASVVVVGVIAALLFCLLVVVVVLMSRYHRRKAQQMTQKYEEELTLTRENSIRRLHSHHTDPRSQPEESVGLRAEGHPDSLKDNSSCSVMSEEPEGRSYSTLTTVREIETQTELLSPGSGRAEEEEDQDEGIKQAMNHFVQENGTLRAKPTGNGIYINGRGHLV
Chain of UniProt P47898 (whole entry, looked up): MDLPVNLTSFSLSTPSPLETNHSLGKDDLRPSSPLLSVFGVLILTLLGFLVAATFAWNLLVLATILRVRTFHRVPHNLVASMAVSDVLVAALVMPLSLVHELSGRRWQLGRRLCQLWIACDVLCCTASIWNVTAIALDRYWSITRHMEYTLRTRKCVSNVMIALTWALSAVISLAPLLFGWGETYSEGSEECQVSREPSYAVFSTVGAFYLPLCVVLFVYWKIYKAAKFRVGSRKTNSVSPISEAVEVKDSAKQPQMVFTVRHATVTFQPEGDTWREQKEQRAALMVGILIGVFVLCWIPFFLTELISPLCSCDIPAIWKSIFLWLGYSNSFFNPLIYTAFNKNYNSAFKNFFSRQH
Chain of UniProt P02754 (whole entry, looked up): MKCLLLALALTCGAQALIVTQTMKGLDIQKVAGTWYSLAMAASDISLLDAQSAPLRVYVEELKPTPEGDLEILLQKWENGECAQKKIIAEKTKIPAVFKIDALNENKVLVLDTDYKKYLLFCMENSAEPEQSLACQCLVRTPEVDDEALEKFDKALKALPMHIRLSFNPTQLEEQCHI
Chain of UniProt Q07011 (whole entry, looked up): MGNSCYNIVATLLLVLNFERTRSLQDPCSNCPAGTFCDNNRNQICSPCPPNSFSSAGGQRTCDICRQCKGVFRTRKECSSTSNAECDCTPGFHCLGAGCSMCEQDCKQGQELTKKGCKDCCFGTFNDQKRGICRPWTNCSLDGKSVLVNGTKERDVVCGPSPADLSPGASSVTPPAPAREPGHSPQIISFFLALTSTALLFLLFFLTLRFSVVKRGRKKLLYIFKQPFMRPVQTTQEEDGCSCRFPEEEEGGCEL
Chain of UniProt Q8NER1 (whole entry, looked up): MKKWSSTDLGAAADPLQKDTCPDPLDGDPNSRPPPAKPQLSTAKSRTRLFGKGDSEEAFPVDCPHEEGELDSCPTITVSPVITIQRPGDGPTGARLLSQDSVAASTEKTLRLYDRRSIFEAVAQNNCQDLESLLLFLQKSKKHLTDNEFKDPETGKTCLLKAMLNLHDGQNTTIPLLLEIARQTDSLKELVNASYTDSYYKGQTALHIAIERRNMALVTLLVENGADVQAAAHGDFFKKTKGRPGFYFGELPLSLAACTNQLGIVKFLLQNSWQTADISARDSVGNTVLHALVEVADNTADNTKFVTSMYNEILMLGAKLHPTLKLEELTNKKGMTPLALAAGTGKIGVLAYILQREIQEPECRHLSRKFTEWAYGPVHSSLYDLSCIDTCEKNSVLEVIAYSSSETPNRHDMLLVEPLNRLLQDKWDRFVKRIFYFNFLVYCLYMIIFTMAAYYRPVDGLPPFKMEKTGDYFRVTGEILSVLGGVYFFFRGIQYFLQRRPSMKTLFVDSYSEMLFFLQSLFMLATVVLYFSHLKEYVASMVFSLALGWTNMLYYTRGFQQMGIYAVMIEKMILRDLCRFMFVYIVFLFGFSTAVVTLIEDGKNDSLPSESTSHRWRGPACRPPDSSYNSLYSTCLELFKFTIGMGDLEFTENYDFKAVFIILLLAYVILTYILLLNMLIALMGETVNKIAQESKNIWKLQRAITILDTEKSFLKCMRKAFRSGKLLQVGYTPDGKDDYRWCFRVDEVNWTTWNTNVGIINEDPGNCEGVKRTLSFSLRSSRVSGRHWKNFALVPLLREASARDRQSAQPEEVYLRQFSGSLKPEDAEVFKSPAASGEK
Chain of UniProt Q13523 (whole entry, looked up): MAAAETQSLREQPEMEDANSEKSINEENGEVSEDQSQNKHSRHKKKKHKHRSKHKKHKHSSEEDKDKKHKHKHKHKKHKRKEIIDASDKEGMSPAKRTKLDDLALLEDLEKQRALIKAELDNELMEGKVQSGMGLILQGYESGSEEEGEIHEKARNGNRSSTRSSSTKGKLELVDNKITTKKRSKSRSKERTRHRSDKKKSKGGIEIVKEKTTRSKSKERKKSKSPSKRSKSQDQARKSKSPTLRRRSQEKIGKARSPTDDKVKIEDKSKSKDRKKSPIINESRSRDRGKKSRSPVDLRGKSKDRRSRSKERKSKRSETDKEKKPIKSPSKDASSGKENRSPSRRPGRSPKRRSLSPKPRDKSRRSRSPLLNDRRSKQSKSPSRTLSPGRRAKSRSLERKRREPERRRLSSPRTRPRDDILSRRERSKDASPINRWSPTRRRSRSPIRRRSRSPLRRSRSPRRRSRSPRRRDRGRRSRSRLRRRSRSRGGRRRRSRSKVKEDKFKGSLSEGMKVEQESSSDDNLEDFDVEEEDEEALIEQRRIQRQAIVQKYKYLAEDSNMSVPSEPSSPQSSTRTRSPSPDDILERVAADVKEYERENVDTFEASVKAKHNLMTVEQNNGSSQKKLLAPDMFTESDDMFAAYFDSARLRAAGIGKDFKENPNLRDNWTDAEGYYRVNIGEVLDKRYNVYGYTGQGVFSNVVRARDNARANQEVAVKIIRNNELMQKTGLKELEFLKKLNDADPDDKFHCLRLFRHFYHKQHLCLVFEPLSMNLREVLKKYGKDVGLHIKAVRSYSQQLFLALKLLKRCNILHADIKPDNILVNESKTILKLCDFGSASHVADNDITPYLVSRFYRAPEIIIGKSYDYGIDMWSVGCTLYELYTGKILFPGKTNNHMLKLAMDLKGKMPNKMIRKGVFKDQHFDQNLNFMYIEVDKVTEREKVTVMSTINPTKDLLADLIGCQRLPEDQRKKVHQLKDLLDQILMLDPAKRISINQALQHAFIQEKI
Chain of UniProt P04080 (whole entry, looked up): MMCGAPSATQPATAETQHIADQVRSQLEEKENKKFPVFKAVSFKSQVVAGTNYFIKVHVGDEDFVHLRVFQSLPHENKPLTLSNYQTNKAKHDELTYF
Chain of UniProt P05164 (whole entry, looked up): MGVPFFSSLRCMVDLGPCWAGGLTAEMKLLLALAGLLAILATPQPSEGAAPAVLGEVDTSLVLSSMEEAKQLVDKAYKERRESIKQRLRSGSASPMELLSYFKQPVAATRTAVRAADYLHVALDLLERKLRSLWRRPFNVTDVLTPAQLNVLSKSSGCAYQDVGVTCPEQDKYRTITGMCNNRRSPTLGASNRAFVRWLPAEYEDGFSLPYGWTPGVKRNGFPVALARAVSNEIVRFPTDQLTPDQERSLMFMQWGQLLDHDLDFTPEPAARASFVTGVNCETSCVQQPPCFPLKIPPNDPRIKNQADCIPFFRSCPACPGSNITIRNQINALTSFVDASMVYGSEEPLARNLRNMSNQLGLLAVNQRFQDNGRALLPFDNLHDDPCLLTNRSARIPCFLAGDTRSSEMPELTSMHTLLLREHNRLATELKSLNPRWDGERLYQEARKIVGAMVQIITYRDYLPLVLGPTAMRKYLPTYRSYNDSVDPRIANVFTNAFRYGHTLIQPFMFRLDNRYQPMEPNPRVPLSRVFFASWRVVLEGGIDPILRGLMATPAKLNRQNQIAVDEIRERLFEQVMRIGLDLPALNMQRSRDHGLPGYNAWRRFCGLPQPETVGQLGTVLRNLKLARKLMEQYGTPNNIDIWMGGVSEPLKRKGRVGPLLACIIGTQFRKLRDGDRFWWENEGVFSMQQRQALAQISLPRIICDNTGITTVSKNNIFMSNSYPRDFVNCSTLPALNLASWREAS

CCCC[C@@H]1NC(=O)[C@H](Cc2ccc(O)cc2)NC(=O)[C@@H]2CCCN2C(=O)[C@H](CC(=O)O)NC(=O)[C@H](C)NC(=O)[C@H](Cc2ccccc2)NC(=O)[C@@H]2CSCCC(=O)N3CN(CN(C3)C(=O)CCSC[C@H](NC(C)=O)C(=O)N[C@@H](CC(C)(C)C)C(=O)N[C@@H](CCC(=O)O)C(=O)N[C@@H](CCC(=O)O)C(=O)N[C@H](CCCCNC(=O)CCc3cn(CCOCCOCCOCCOCCOCCC(=O)N[C@H]4CSCCC(=O)N5CN6CN(C5)C(=O)CCSC[C@H](NC(=O)[C@@H](CC(=O)O)NC(=O)[C@H](Cc5cccc7ccccc57)NC(=O)[C@@H]5CCCN5C4=O)C(=O)N[C@@H](CCSC)C(=O)N[C@@H](CCCCNC(=N)N)C(=O)N[C@@H](CC(=O)O)C(=O)N[C@@H](Cc4c[nH]c5ccccc45)C(=O)N[C@@H](CO)C(=O)N[C@@H]([C@@H](C)O)C(=O)N4CCC[C@H]4C(=O)N4C[C@H](O)C[C@H]4C(=O)N[C@@H](Cc4c[nH]c5ccccc45)C(=O)N[C@H](C(N)=O)CSCCC6=O)nn3)C(=O)N3CCC[C@H]3C(=O)N[C@@H](Cc3ccc(O)cc3)C(=O)N2)C(=O)CCSC[C@@H](C(N)=O)NC1=O
Emax (Tumor necrosis factor receptor superfamily member 9/Nectin-4 (Homo sapiens, UniProt Q07011+Q96NY8); reporter gene, agonist; HT-1376 coculture with reporter cells; reference: background): 44 fold

O=c1nc(SCc2cc(F)cc(C(F)(F)F)c2)nc(SCc2csc3ccc(Cl)cc23)[nH]1
relaxed DNA (DNA topoisomerase 2-alpha (TOP2A, Homo sapiens, UniProt P11388); DNA relaxation; 1.95 µM, replicate 1): 92.1%

C#CCOc1ccccc1N1CCN(C(=O)c2cccc(S(=O)(=O)n3cnc(C4CC4)n3)c2)CC1
spectral count (Cystatin-B (CSTB, Homo sapiens, UniProt P04080); label-free LC-MS/MS chemoproteomics; COLO 205; 100 µM, 4 h, 37 °C): 111

COc1cc(CNC(=O)CCCC/C=C/C(C)C)ccc1O
open time constant (Transient receptor potential cation channel subfamily V member 1 (TRPV1, Homo sapiens, UniProt Q8NER1); channel gating, single-channel inside-out patch; 100 nM, component 3 of four): 57.4 ms

O=C(C=Cc1ccc(F)cc1)Nc1cc(-c2ccnc(N3CCC(O)CC3)c2)ccn1
binding response (Nuclear receptor subfamily 4 group A member 1 (NR4A1, Homo sapiens, UniProt P22736); SPR; 10.0 µM): 25.2 RU

Nc1nc2c(ncn2[C@@H]2O[C@H](COP(=O)(O)O)[C@@H](O)[C@H]2O)c(=O)[nH]1
reaction velocity (GUK1 (Homo sapiens, UniProt Q16774); enzyme activity, NADH-coupled; 15.62 µM, with: KCl 10 mM): 0.00988 µM/s and 0.0222 µM/s and 0.0317 µM/s

CC[C@@H]1[C@H](F)C(=O)N[C@@H]1COc1nccc2cc(C(N)=O)c(OC)cc12
inhibition (Serine/threonine-protein kinase PRP4 homolog (PRPF4B, Homo sapiens, UniProt Q13523); ATP-site probe binding, inhibitor, ActivX ATP probe profiling; THP-1 cell lysate; 0.01 mM, other probe site): 11%

NC/C(=C\F)COc1cccc(Cn2c(=S)[nH]c(=O)c3[nH]cnc32)c1
H2O2 consumption (Myeloperoxidase (MPO, Homo sapiens, UniProt P05164); enzyme activity, inhibitor, H2O2 electrode; 0.028 µM): 121%

CC(C)=CCC/C(C)=C/C=C/C(C)=C/C=C/C(C)=C/C=C/C=C(C)/C=C/C=C(C)/C=C/C=C(\C)CCC=C(C)C
Stern-Volmer quenching constant (Beta-lactoglobulin (LGB, Bos taurus, UniProt P02754); fluorescence quenching; 308 K): 4370 ± 840 L/mol

COc1ccc(Cc2nnc(NS(=O)(=O)c3ccc(Cl)cc3Cl)s2)cc1
Kii (Glutathione hydrolase 1 proenzyme, without transmembrane domain (Homo sapiens, UniProt P19440); GSH hydrolysis, uncompetitive inhibitor; 37 °C, binds gamma-glutamyl enzyme, with: GSH 5-20 µM): 950 ± 242 µM

Cc1ccc(OC[C@H]2CN(CCN3CCc4ccccc43)CCO2)cn1
inhibition (5-hydroxytryptamine receptor 5A (HTR5A, Homo sapiens, UniProt P47898); radioligand binding; concentration not given, with: [3H]LSD): -9.3%

Nc1ncnc2c1ncn2[C@@H]1O[C@H](COP(=O)(O)O)[C@@H](O)[C@H]1O
Kd (T1, ssDNA, aptamer; ITC): 90.5 µM

O=C(O)c1ccc(Nc2ncc3c(n2)-c2ccc(Cl)cc2C(c2c(F)cccc2F)=NC3)cc1
remaining activity (PKG1α(h); kinase activity; 1 µM): 103%

Excerpt of the above:
COc1cc(CNC(=O)CCCC/C=C/C(C)C)ccc1O
open time constant (Transient receptor potential cation channel subfamily V member 1 (TRPV1, Homo sapiens, UniProt Q8NER1); channel gating, single-channel inside-out patch; 100 nM, component 3 of four): 57.4 ms

O=C(C=Cc1ccc(F)cc1)Nc1cc(-c2ccnc(N3CCC(O)CC3)c2)ccn1
binding response (Nuclear receptor subfamily 4 group A member 1 (NR4A1, Homo sapiens, UniProt P22736); SPR; 10.0 µM): 25.2 RU
